Measurements of several laboratories.
Each numbered part is a random draw from the data of one study; scales do not carry over between parts. Values joined by “and” are separate records of one study, mostly repeats; a detail may differ.
Chain of UniProt Q16620 (whole entry, looked up): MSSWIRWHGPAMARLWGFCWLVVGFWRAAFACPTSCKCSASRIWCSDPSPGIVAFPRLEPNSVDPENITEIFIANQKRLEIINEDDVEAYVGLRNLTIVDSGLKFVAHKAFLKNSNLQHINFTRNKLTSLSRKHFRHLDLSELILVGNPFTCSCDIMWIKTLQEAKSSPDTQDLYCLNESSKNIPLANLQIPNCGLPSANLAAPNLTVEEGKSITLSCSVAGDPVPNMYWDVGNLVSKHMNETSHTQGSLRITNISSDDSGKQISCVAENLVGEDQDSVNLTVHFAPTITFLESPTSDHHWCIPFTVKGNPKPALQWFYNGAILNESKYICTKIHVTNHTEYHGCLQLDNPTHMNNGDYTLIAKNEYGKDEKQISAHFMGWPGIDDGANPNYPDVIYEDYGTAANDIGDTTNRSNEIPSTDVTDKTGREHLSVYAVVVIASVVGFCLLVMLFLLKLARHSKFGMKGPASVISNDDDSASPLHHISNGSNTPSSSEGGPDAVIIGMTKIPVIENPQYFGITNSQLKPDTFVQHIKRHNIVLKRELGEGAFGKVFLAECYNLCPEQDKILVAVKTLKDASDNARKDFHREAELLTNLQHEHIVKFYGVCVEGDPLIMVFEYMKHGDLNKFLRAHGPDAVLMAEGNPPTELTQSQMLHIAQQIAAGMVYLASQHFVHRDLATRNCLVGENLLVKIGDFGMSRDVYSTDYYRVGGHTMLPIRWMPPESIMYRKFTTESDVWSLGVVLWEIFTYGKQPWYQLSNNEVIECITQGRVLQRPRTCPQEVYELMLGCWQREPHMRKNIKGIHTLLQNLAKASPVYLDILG
Chain of UniProt P14616 (whole entry, looked up): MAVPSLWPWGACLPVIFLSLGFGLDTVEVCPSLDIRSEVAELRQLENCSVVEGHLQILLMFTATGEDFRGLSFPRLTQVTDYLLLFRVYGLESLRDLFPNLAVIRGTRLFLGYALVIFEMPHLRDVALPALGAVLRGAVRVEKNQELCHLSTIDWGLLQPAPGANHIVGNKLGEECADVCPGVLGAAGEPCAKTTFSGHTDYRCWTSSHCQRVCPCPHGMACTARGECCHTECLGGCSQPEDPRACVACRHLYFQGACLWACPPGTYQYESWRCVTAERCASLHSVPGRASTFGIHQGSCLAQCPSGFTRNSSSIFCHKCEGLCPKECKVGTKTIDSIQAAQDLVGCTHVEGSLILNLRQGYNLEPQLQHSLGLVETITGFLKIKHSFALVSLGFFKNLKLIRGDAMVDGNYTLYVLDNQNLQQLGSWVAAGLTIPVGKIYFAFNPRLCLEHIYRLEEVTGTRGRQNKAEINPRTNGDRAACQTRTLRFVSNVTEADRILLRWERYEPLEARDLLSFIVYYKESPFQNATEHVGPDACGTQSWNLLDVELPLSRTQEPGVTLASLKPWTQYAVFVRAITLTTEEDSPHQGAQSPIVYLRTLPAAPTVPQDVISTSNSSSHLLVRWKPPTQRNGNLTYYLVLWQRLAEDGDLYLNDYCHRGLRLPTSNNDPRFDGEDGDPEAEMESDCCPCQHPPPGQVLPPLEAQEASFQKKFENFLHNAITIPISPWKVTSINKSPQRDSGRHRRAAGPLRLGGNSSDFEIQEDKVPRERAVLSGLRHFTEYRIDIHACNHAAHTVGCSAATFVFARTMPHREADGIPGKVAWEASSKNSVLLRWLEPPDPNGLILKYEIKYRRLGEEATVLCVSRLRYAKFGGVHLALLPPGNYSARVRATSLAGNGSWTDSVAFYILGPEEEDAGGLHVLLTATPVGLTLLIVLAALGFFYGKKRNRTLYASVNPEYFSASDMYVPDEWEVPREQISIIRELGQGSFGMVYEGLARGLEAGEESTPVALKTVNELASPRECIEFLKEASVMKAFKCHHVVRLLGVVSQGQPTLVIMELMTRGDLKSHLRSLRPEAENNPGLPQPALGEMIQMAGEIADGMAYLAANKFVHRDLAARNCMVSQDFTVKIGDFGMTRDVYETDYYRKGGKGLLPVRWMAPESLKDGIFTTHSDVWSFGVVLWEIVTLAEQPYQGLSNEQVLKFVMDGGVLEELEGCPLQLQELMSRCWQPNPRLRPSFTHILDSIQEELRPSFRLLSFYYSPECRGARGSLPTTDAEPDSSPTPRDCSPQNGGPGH
Chain of UniProt Q07912 (whole entry, looked up): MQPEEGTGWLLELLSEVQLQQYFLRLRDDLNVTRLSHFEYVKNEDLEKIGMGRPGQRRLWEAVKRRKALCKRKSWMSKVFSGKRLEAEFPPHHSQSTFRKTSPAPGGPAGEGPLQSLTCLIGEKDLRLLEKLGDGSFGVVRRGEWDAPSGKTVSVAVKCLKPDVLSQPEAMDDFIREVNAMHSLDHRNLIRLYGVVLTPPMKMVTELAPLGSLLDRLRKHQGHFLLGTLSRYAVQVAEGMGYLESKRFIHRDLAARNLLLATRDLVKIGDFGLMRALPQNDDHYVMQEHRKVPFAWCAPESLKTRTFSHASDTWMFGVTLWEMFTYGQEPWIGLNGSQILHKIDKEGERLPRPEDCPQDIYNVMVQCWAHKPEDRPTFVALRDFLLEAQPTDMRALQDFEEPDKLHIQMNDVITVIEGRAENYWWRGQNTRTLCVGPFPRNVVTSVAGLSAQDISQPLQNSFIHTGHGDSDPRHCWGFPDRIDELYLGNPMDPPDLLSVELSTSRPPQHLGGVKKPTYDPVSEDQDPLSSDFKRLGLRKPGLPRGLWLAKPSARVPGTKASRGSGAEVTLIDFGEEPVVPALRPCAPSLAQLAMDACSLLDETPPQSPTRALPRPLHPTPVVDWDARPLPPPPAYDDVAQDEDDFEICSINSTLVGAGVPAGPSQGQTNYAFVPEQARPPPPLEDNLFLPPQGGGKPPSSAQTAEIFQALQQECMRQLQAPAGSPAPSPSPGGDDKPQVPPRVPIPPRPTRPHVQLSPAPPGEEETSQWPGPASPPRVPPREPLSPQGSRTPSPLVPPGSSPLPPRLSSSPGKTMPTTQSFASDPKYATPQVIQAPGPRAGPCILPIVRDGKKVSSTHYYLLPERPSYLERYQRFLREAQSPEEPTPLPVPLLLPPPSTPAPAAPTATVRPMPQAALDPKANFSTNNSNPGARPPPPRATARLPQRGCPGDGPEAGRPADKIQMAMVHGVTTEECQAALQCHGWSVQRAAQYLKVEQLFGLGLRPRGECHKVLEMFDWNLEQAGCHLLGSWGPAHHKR
Chain of UniProt O75385 (whole entry, looked up): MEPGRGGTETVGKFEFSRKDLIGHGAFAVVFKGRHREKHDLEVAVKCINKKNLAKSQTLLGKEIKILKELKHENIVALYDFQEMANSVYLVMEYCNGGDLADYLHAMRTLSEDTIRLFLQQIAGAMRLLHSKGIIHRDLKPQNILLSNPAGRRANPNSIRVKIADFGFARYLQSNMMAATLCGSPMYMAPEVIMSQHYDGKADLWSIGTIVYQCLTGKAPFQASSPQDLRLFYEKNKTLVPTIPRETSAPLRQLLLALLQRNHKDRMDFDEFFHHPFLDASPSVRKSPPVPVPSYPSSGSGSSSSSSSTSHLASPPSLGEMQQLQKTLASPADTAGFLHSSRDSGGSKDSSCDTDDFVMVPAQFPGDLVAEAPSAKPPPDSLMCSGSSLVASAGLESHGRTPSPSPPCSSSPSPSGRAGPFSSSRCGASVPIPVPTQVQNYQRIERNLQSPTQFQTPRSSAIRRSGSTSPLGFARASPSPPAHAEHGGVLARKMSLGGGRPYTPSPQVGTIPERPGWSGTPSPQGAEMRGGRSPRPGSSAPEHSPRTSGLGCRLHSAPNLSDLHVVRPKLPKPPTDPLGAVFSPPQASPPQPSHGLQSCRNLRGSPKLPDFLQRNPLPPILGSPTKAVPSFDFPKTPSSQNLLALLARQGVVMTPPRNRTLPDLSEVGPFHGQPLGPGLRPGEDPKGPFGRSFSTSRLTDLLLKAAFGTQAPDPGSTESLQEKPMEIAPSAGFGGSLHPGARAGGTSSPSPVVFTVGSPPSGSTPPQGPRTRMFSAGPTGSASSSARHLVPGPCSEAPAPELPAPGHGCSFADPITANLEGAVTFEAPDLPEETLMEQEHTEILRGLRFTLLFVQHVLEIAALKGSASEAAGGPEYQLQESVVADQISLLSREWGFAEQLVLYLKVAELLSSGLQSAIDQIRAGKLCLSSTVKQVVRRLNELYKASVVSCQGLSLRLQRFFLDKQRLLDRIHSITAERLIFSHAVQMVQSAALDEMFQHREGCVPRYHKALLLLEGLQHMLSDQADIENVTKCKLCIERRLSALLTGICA

Set 1
SMILES: CNC(=O)c1ccc(-c2cnn3ccc(C(=O)N(C)c4ccc(Cl)c(C(=O)OC)c4)cc23)cc1
Organism: Cryptosporidium parvum
Technique: time-kill
Cell line: HCT-8
Strain: nanoluciferase-expressing
Relative to: DMSO control
| tested at | time | luminescence remaining |
| --- | --- | --- |
| 20 µM | 24 h | 42.7% and 38.6% |
| 0.02743 µM | 72 h | 13.5% and 8.52% |
| 0.00305 µM | 48 h | 117% and 99.6% |
| 0.2469 µM | 8 h | 92.2% and 111% |
| 0.2469 µM | 0 h | 103% and 85.9% and 92% and 105% and 117% and 94.1% and 101% and 102% |

Set 2
Target: Sodium-dependent dopamine transporter (SLC6A3, Homo sapiens, UniProt Q01959)
Chain of UniProt Q01959 (whole entry, looked up): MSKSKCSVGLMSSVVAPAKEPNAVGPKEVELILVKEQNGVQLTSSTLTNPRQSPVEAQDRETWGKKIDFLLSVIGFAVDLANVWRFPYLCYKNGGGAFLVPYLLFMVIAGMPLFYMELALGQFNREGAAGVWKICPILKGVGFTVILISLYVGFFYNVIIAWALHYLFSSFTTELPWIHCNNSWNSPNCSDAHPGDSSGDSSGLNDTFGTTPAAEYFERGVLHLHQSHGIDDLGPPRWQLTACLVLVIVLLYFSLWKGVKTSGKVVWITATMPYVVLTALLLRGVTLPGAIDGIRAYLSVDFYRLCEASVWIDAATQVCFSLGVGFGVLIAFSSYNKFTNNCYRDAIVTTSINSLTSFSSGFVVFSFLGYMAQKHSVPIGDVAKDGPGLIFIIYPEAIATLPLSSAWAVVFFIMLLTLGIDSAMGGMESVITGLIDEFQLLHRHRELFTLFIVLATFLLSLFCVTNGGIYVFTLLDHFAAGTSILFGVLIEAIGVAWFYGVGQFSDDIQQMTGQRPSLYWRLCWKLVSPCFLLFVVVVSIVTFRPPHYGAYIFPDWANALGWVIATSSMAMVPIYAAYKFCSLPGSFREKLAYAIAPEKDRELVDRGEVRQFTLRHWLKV
Observed: cell-free assay
Tested at: 10 µM
| Compound | inhibition [%] |
| --- | --- |
| O=C(NNS(=O)(=O)c1ccccc1F)c1cc(F)cc(-c2ccccn2)c1 | -27.1 |
| Cc1cc(Nc2nccc(C)n2)cc(-c2cnc([C@@]3(O)CC[C@H](C(=O)O)C(C)(C)C3)s2)c1 | 39.3 |
| O=C(NCCCC1CCCCC1)c1ccc(CNC(=O)c2cnn(-c3ccccc3)c2C(F)(F)F)cc1 | 22.3 |
| Cc1c(C(=O)O)cc(-c2ccc(C3CCNCC3)cc2)c2ccc(-c3ccc(C(F)(F)F)cc3)cc12 | 31.2 |
| CN(C)C(=O)Cn1cc(-c2nc(C3(c4ccc(-c5cnc(N)nc5)cc4)CC3)no2)cn1 | 52.4 |
| Cn1nc(C(=O)NCc2ccc(C(=O)O)cc2)cc1-c1ccc2[nH]ccc2c1 | -16.9 |
| O=c1nc(-c2ccccn2)sc2ccccc12 | -3.83 |
| COc1cc(C(=O)O)ncc1C#Cc1ccccc1NS(=O)(=O)c1cccc2c(N(C)C)ccnc12 | 80.3 |
| CC1=C(C#N)C(c2ccc3[nH]nc(C)c3c2)C(C#N)=C(C)N1 | -13.9 |
| C[C@H](c1ccc(F)cc1)N(Cc1cccc(C(=O)O)c1)C(=O)c1cnc2ccccc2c1 | -18.8 |
| Cc1noc([C@H]2C[C@@H](c3ccc(C(F)(F)F)cc3)CN(C(=O)N3CCS(=O)(=O)C3)C2)n1 | 5.46 |
| C[C@H](NC(=O)Nc1cc2[nH]ncc2c(CO)n1)c1ccccn1 | 4.79 |
| CCC(F)(F)c1cc(N2CCC(S(C)(=O)=O)CC2)nc2sc(C(N)=O)c(N)c12 | 2.35 |
| O=C(N[C@H]1CCCCC/C=C\C2C[C@@]2(C(=O)O)NC(=O)[C@@H]2C[C@@H](Oc3ccncc3)CN2C1=O)OC1CCCC1 (some centres unmarked) | -13 |
| CN(c1ccnc(CNc2nc(Nc3ccc4c(c3)CC(=O)N4)ncc2C(F)(F)F)n1)S(C)(=O)=O | -11.6 |
| N#Cc1ccc(Nc2ccc3[nH]c(=O)[nH]c3c2)c(Cl)c1 | 14 |
| CC(C)(C)OC(=O)N1CCCC1CNC1CCC(c2cc(F)ccc2F)(S(=O)(=O)c2ccc(Cl)cc2)CC1 (centres unmarked) | 95.9 |

Set 3
Organism: Vesicular stomatitis virus
Observed: pseudovirus infection
Technique: FDA-approved drug library screen
Tested at: concentration not given
Notes: VSV-G control pseudotype
Relative to: vehicle
| SMILES | GFP-positive cells |
| --- | --- |
| COc1nc2ccc(Br)cc2cc1[C@@H](c1ccccc1)[C@@](O)(CCN(C)C)c1cccc2ccccc12 | 154% |
| CO/N=C(\C(=O)N[C@@H]1C(=O)N2C(C(=O)O)=C(CSc3nnnn3C)CS[C@H]12)c1csc(N)n1.CO/N=C(\C(=O)N[C@@H]1C(=O)N2C(C(=O)O)=C(CSc3nnnn3C)CS[C@H]12)c1csc(N)n1.Cl | 104% |
| O=C(c1cc(Cc2n[nH]c(=O)c3ccccc23)ccc1F)N1CCN(C(=O)C2CC2)CC1 | 94.7% |
| O=C(O)C(O)C(O)C(=O)O.c1cnc2cc3c(cc2n1)[C@@H]1CNC[C@H]3C1 | 142% |
| C[C@]12CC[C@@H]3c4ccc(O)cc4CC[C@H]3[C@@H]1CC[C@@H]2OC(=O)CCC1CCCC1 | 89% |
| CC(=O)OC[C@H]1O[C@@H]([S-])[C@H](OC(C)=O)[C@@H](OC(C)=O)[C@@H]1OC(C)=O.CCP(CC)CC.[Au+] | -0.11% |
| Cl.N=C(N)NN | 78.7% |

Set 4
SMILES: COc1ccc2c(c1)/C(=C/c1cnc[nH]1)C(=O)N2
Observed: enzyme activity
Action: inhibitor
Tested at: 0.5 µM
Relative to: control
| target | remaining activity [%] |
| --- | --- |
| Serine/threonine-protein kinase ULK1 (ULK1, Homo sapiens, UniProt O75385) | 53.4 |
| Serine/threonine-protein kinase VRK1 (VRK1, Homo sapiens, UniProt Q99986) | 91.2 |
| Activated CDC42 kinase 1 (TNK2, Homo sapiens, UniProt Q07912) | 92.6 |
| Insulin receptor-related protein (INSRR, Homo sapiens, UniProt P14616) | 97.8 |
| BDNF/NT-3 growth factors receptor (NTRK2, Homo sapiens, UniProt Q16620) | 30.1 |
| Mitogen-activated protein kinase kinase kinase 9 (MAP3K9, Homo sapiens, UniProt P80192) | 58 |

Excerpt of the above (set 2):
| Compound | inhibition [%] |
| --- | --- |
| O=C(NCCCC1CCCCC1)c1ccc(CNC(=O)c2cnn(-c3ccccc3)c2C(F)(F)F)cc1 | 22.3 |
| Cc1c(C(=O)O)cc(-c2ccc(C3CCNCC3)cc2)c2ccc(-c3ccc(C(F)(F)F)cc3)cc12 | 31.2 |
